Measurements of several laboratories.
Each line is one published result; not all experiments were run side by side.

test system	setting	bioavailability [%]	Structure (SMILES)
female CD-1 mouse, plasma	oral, 10 mg/kg	44	COC1C=COC2(C)Oc3c(C)c(O)c4c(c3C2=O)C2=NC3(CCN(CC(C)C)CC3)NC2=C(NC(=O)C(C)=CC=CC(C)C(O)C(C)C(O)C(C)C(OC(=O)Nc2cccnn2)C1C)C4=O (stereo not drawn)
male BALB/c mouse, plasma	intraperitoneal, 50 mg/kg, single dose	> 100	Cn1c2cc([S+](C)[O-])sc2c2cnn(Cc3cccc(N)c3)c(=O)c21 (stereo not drawn)
female CD-1 mouse, plasma	oral, 10 mg/kg	22	COc1ccccc1NC(=O)OC1C(C)C(OC)C=COC2(C)Oc3c(C)c(O)c4c(c3C2=O)C2=NC3(CCN(CC(C)C)CC3)NC2=C(NC(=O)C(C)=CC=CC(C)C(O)C(C)C(O)C1C)C4=O (stereo not drawn)
mouse, plasma	oral	0	Cc1cc(C(=O)N[C@@H](CC(=O)NC(C)(C)C)C(=O)NCCNC(=O)c2cc(-c3ccccc3)ccn2)no1
mouse, plasma	oral, 30 mg/kg	17	O=S(=O)(Nc1ccc(OC(F)(F)F)cc1)N1CCCC(C2c3ccc(F)cc3CCc3cc(F)ccc32)C1 (stereo not drawn)
CD-1 mouse, plasma	oral, 10 mg/kg	3.6	CCC1C(COc2nccc3cc(C(N)=O)c(OC)cc23)NC(=O)C1F (stereo not drawn)
mouse, plasma	oral, 10 mg/kg	1	Nc1nnc(-c2ccccc2O)cc1N1CC2CCC(C1)N2c1ccnc(C#CCCN2CCCCCC2)c1
male CD-1 mouse, plasma	oral, 10 mg/kg	42	CCn1cc(-c2cc(Cn3ccnc3)cc3c2CCN([C@H](c2cc(OC)ccn2)C2CC2)C3=O)c(C(F)(F)F)n1
male CD-1 mouse, blood	oral, 10 mg/kg	25 to 48	OCC1OC(n2cnc3c(NCc4ccc(Br)s4)ncnc32)C(O)C1O (stereo not drawn)
male CD-1 mouse, plasma	oral, 50 mg/kg	150	COc1cnc2cccc(N3CCc4c(cc(Cn5ccnc5)cc4-c4cn(C)nc4C(F)(F)F)C3=O)c2c1
C57BL/6 mouse, blood	oral, 100 mg/kg	161	Cn1ccc(-c2cc(Cl)c(Cl)c3[nH]c4c(c23)CN(C(=O)CO)CC4)n1
female CD-1 mouse, plasma	oral, 10 mg/kg	74	COC1C=COC2(C)Oc3c(C)c(O)c4c(c3C2=O)C2=NC3(CCN(CC(C)C)CC3)NC2=C(NC(=O)C(C)=CC=CC(C)C(O)C(C)C(O)C(C)C(OC(=O)Nc2cnccn2)C1C)C4=O (stereo not drawn)
mouse, plasma	oral, 30 mg/kg	41	O=S(=O)(N[C@H]1CCO[C@@H](C2c3ccc(F)cc3CCc3cc(F)ccc32)C1)c1ccc(OC(F)(F)F)cc1
male C57BL/6 mouse, plasma	oral	14	CCC1(CC)CC(=O)N(C2c3cc(C(=O)NC4c5ccccc5CC4O)ccc3OC2(C)COC)C(=N)N1 (stereo not drawn)
male C57BL/6 mouse, plasma	oral, 50 mg/kg	48.6	COC(=O)C1=CNC=C(C(=O)OC)C1c1ccc(F)c(C(F)(F)F)c1
